Experimental data pooled from the literature.
Every numbered part comes from another study and shows a few of its results, in no order. pIC50: −log10 of the molar value.
Sequence of UniProt P07949 (whole entry, looked up): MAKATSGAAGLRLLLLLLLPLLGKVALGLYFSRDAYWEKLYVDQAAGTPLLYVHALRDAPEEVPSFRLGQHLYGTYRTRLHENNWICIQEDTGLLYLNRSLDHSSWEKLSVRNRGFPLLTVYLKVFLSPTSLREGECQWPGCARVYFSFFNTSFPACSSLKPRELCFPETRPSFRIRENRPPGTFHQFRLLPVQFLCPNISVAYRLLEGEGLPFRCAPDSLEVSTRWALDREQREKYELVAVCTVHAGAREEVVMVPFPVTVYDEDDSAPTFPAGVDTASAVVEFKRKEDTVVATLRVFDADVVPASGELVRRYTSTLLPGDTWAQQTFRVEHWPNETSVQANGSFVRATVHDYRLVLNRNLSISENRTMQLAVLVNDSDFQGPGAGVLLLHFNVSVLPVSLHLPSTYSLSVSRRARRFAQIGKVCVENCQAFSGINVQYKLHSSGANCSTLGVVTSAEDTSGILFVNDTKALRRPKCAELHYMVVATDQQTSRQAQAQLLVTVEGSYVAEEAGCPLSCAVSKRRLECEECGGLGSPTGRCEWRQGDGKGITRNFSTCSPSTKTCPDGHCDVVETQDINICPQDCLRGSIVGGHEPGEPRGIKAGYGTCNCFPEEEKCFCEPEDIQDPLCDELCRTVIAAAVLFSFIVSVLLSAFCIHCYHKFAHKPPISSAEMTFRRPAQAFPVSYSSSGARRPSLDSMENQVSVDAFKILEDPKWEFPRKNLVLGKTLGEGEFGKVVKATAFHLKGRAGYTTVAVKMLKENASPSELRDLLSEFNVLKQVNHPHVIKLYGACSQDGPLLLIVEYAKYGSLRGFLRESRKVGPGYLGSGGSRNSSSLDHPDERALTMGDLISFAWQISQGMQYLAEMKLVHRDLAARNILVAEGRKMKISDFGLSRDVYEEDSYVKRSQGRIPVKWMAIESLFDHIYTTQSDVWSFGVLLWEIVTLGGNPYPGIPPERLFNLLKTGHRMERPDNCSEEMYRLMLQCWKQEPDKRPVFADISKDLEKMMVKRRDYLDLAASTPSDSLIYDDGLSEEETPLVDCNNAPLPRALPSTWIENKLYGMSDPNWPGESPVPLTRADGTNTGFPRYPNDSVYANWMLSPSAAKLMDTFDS
Sequence of UniProt Q52WX2 (whole entry, looked up): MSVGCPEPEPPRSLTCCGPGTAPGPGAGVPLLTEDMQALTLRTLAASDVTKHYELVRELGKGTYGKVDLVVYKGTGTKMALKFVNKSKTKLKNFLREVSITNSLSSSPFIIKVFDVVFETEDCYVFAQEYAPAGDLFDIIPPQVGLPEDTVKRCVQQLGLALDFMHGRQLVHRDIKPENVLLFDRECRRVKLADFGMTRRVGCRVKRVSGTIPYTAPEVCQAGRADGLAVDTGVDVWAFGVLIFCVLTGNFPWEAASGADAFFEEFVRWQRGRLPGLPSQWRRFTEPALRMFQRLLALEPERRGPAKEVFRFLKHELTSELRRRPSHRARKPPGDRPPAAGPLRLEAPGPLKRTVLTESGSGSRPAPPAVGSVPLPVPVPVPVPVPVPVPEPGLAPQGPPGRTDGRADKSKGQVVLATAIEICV
Sequence of UniProt O75582 (whole entry, looked up): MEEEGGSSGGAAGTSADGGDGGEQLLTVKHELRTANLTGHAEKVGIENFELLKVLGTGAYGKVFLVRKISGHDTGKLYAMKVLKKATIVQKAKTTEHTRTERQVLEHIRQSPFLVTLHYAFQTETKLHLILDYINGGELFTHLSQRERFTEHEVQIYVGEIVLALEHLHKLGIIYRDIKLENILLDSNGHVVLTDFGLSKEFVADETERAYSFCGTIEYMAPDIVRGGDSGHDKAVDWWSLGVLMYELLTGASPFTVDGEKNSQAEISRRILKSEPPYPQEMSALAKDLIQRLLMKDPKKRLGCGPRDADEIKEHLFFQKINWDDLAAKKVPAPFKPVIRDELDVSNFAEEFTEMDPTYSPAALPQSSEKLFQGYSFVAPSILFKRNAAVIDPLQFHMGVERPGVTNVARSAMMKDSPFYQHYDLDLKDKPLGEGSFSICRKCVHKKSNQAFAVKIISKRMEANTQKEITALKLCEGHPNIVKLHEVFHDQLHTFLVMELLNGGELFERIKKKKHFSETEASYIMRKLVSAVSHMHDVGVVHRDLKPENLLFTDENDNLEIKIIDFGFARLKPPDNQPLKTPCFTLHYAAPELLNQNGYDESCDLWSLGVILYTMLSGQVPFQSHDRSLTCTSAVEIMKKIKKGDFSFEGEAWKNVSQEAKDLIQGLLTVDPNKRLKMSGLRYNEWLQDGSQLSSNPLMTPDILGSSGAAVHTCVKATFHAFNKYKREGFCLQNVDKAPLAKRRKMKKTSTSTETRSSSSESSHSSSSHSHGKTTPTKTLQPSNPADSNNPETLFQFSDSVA
Sequence of UniProt Q9Y4K4 (whole entry, looked up): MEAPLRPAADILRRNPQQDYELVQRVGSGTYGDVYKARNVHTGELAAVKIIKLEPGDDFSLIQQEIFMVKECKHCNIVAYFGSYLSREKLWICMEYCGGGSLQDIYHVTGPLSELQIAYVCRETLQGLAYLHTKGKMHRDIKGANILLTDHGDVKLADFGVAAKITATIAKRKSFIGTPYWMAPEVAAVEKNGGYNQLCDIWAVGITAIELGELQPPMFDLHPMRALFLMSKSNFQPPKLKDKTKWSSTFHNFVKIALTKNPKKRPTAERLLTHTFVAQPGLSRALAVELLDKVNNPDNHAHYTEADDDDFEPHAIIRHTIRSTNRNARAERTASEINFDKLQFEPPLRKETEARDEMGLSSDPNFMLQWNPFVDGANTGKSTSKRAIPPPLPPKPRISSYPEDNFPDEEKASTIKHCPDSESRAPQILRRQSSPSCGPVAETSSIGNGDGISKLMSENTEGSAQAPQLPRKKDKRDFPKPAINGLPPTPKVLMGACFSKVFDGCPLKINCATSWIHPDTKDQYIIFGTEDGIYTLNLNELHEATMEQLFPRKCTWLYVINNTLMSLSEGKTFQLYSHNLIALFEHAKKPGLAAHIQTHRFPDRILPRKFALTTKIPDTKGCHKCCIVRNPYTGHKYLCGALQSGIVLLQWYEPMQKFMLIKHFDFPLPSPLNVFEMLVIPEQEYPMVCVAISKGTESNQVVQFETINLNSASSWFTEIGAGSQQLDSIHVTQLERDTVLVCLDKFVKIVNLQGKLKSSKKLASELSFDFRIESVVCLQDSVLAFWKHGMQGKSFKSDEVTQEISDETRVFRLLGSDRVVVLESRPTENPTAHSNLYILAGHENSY
Sequence of UniProt Q15303 (whole entry, looked up): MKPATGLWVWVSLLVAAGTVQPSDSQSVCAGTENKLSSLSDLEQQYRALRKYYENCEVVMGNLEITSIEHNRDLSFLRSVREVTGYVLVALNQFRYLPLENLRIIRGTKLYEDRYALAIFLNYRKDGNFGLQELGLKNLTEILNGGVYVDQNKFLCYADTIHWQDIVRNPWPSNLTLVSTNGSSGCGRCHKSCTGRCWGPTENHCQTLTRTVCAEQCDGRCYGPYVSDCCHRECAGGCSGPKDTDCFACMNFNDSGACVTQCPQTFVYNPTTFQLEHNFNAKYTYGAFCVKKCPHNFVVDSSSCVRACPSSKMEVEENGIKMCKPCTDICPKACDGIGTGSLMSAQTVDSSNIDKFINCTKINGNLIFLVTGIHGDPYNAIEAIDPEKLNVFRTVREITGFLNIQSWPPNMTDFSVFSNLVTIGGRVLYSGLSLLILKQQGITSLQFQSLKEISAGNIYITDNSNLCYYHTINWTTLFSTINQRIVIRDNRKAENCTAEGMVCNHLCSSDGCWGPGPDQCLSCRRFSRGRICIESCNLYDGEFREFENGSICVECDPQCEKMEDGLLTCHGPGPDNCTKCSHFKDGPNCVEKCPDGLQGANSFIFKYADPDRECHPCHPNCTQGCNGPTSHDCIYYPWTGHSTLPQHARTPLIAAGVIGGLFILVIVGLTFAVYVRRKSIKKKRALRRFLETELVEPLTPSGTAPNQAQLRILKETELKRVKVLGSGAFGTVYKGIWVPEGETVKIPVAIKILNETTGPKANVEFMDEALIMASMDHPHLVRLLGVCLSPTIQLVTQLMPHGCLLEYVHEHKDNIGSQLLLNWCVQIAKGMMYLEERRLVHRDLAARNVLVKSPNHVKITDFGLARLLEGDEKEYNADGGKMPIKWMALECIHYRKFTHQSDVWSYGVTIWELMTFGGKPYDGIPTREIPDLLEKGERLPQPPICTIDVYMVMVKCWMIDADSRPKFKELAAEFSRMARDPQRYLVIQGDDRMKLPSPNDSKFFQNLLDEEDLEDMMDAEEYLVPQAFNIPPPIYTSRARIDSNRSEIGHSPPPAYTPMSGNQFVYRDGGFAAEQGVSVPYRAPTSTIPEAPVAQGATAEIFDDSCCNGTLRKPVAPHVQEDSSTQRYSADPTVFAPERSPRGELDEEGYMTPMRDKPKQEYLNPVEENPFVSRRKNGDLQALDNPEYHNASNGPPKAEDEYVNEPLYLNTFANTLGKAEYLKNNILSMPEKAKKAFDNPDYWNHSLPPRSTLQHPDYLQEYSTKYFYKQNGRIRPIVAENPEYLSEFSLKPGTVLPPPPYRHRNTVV

Set 1
Compound: CS(=O)(=O)N1CCCC(NC(=O)[C@H](CCC2CCCCC2)NC(=O)c2ccc(CNc3ncnc4c3nnn4-c3ccccc3)cc2)C1 (stereo partly drawn)
Tested at: 0.1 µM
For Tyrosine-protein kinase ABL1, phosphorylated (ABL1, Homo sapiens, UniProt P00519, F317L); cell-free assay, competition with immobilised ligand: remaining binding read 91%.
For PI4KB (Homo sapiens, UniProt Q9UBF8); cell-free assay, competition with immobilised ligand: remaining binding read 100%.
The remaining binding was 100% (WNK1 (Homo sapiens, UniProt Q9H4A3); cell-free assay, competition with immobilised ligand).
The remaining binding was 82% (SBK1 (Homo sapiens, UniProt Q52WX2); cell-free assay, competition with immobilised ligand).
It gave 99% for remaining binding (CDC42BPG (Homo sapiens, UniProt Q6DT37); competition binding).
It gave 61% for remaining binding (ERBB4 (Homo sapiens, UniProt Q15303); cell-free assay, competition with immobilised ligand).
The remaining binding was 73% (MAP3K10 (Homo sapiens, UniProt Q02779); cell-free assay, competition with immobilised ligand).
The remaining binding was 76% (MAP4K5 (Homo sapiens, UniProt Q9Y4K4); cell-free assay, competition with immobilised ligand).
EGFR (Homo sapiens, UniProt P00533, del746-750); cell-free assay, competition with immobilised ligand — remaining binding: 100%.
The remaining binding was 81% (Ribosomal protein S6 kinase alpha-5, N-terminal kinase domain (RPS6KA5, Homo sapiens, UniProt O75582); cell-free assay, competition with immobilised ligand).
For PLK1 (Homo sapiens, UniProt P53350); cell-free assay, competition with immobilised ligand: remaining binding read 80%.
For RET (Homo sapiens, UniProt P07949); cell-free assay, competition with immobilised ligand: remaining binding read 87%.

Set 2
Target: Beta-1 adrenergic receptor (ADRB1, Homo sapiens, UniProt P08588)
Sequence of UniProt P08588 (whole entry, looked up): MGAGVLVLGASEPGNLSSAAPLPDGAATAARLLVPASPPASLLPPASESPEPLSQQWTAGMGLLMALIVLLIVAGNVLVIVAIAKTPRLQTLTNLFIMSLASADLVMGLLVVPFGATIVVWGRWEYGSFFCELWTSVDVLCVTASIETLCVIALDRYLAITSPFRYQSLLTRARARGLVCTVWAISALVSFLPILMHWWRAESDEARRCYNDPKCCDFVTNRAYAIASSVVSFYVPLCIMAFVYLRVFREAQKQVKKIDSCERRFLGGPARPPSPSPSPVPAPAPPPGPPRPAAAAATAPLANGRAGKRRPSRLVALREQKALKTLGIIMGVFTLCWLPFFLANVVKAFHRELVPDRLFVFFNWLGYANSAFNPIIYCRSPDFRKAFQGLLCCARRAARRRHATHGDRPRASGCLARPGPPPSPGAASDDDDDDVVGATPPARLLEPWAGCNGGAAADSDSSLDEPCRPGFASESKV
Action: antagonist
The pIC50 of `O=C(Nc1ccc([C@@H](O)[C@H]2COCC(=O)N2Cc2ncc[nH]2)cc1)C1CC1` is reported as ≤ 4.00.
For `O=C(Nc1nnc(-c2ccco2)o1)c1cc(-c2ccccc2)nc2ccccc12`, the pIC50 was 4.65.
`COC(=O)CN1CCN(c2ccccc2OC)CC1` gave a pIC50 of ≤ 4.00.
The pIC50 of `N#CSCC(=O)c1ccc(O)c(O)c1` is reported as ≤ 4.00.
The pIC50 of `CN(c1ccccc1)c1cc(=O)c2ccnc(NCC3CCOCC3)c2o1` is reported as ≤ 4.00.
The pIC50 of `Cn1c(=O)c2c(nc(N3CCNCC3)n2Cc2ccccc2)n(C)c1=O` is reported as ≤ 4.00.

Set 3
Organism: Sarcocystis neurona
Effect on: parasite growth
Tested at: 10 µM
Time: 96 h
Notes: first screen
`OC(Cn1cncn1)(Cn1cncn1)c1ccc(F)cc1F` has an inhibition of -3.1%.
With `C[C@@H]1C[C@H]2[C@@H]3CCC4=CC(=O)C=C[C@]4(C)[C@@]3(F)[C@@H](O)C[C@]2(C)[C@@]1(O)C(=O)CO` the inhibition was 12%.
For `CNC(=C[N+](=O)[O-])NCCSCc1ccc(CN(C)C)o1`, the inhibition was -23.8%.
`CC(=O)[C@H]1CC[C@H]2[C@@H]3C[C@H](C)C4=CC(=O)CC[C@]4(C)[C@H]3[C@@H](O)C[C@]12C` gave an inhibition of -22.4%.

Set 4
Cell line: mouse MPNST tumor cells
Technique: high-content nuclear imaging
Refers to: cell number
Tested at: 10 µM
Time: 12 h
Notes: mean of 2 replicates
Baseline: plate mean
Reading: higher = more cells
For `COc1nccnc1NS(=O)(=O)c1cccc(Cl)c1Cl`, the nuclei count was 0.357 z-score.
With `CN(C)C(=O)C(CCN1CCC(O)(c2ccc(Cl)cc2)CC1)(c1ccccc1)c1ccccc1` the nuclei count was -5.72 z-score.
`CCn1c2ccccc2c2cc(CNC)ccc21` gave a nuclei count of -0.954 z-score.
The nuclei count of `CN1CCN(CCCN2c3ccccc3Sc3ccc(Cl)cc32)CC1` is reported as -4.94 z-score.
For `CC(C)S(=O)(=O)N[C@H]1Cc2ccc(-c3ccc(F)nc3)cc2C1`, the nuclei count was 0.216 z-score.

A few entries again (set 3):
`OC(Cn1cncn1)(Cn1cncn1)c1ccc(F)cc1F` has an inhibition of -3.1%.
With `C[C@@H]1C[C@H]2[C@@H]3CCC4=CC(=O)C=C[C@]4(C)[C@@]3(F)[C@@H](O)C[C@]2(C)[C@@]1(O)C(=O)CO` the inhibition was 12%.
